Published values of several laboratories.
“And” joins repeats or separate records; there may be more than shown. ± gives the spread as reported.
Chain of UniProt Q12851 (whole entry, looked up): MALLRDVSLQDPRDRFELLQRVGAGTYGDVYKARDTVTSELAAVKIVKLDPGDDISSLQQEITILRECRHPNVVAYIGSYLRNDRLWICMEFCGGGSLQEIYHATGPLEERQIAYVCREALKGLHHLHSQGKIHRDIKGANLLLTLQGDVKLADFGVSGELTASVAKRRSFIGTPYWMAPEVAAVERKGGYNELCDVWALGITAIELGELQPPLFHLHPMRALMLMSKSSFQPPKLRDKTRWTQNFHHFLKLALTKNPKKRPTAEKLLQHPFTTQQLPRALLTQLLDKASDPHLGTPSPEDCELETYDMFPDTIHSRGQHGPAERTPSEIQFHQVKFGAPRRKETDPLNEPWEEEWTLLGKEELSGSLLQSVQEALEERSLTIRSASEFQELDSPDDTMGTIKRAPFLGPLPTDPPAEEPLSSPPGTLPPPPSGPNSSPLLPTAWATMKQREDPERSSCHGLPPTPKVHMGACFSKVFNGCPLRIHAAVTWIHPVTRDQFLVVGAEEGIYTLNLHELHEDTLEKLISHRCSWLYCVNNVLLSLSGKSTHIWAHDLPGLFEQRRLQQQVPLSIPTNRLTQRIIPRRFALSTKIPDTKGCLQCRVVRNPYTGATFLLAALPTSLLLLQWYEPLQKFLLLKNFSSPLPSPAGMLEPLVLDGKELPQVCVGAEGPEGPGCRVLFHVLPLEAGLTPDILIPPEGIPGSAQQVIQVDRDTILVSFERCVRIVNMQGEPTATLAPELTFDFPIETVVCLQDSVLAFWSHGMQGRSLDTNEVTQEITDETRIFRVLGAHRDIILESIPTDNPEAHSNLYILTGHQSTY

Cc1nn(-c2cccc(N)c2)c(=O)c2cnc(Nc3ccc(N4CCNCC4)cc3)nc12  IC50 (MAP4K2 (Homo sapiens, UniProt Q12851); enzyme activity, inhibitor): 536 nM
C=Cc1ccccc1[B-]12OC(=O)C(c3ccccc3)=N[N+]1=C(C)c1ccc(N(CC)CC)cc1O2 (stereo not shown)  hydrolysis activation energy (UV/vis decay; aqueous buffer): 23.5 kcal/mol
O=C([O-])CN1CCN(CC(=O)[O-])CCN(CC(CCCc2ccccc2[N+](=O)[O-])N(CC(=O)[O-])CC(=O)[O-])CC1.[177Lu+3] (stereo not shown)  intact radiolabelled complex (HPLC; human serum; 134 h, pH 7, 37 °C): 100%
O=C1C2CC3CC1CC(C(=O)N1CCN(c4ccc([N+](=O)[O-])c5ncccc45)CC1)(C3)C2  revertant fold increase (Escherichia coli; Ames test; WP2 uvrA pKM101; 0.13 µg/well, without S9; baseline: vehicle): 0.7
CC[C@H](C)[C@H](NC(=O)C[C@H](NC(=O)CN1CCN2CCN(CC1)CC(=O)[O][Al]([18F])[O]C(=O)C2)C(=O)O)C(=O)N[C@H]1CCc2cccc3c2N(C1=O)[C@H](C(=O)NCc1cn[nH]n1)C3  maximum tumour uptake (PET; C57BL/6J mice with MC-38 tumour, anti-PD-1 treated; 30 min): 2.21 ± 0.7 %ID/g
N#Cc1cc(NC(=O)C2c3ccccc3C(=O)N(CC(F)(F)F)C2c2ccc[n+]([O-])c2)ccc1F (stereo not shown)  maximum AUC (human, plasma; concentration not given, single-dose cohorts, interim): 51.5 µg·h/mL
Cc1noc(C)c1Cn1cc(N2C(=O)CN(Cc3cccc(OS(=O)(=O)O)c3)C2=O)cn1  plasma concentration (Sprague-Dawley rat, male; oral, 30 mg/kg of parent drug, 0.25 h): 2.31 µg/mL
CC(C)c1cnc(-c2cc(Cl)ccc2F)cc1Nc1ccncc1C(=O)NC(CO)CO  Tmax (female C57BL/6 mice, plasma; oral, 10 mg/kg twice daily, day 1, MC-38 tumour-bearing): 12 h
C#Cc1c(F)ccc2cc(O)cc(-c3ncc4c(N5CC6CCC(C5)N6C(=O)OC(C)OC(=O)c5ccc6ccccc6c5)nc(OC[C@@]56CCCN5C[C@H](F)C6)nc4c3F)c12 (stereo partly shown)  compound remaining (chemical stability; simulated intestinal fluid; 1 µM, 30 min): 86.1%
CC(C)C[C@H](NC(=O)[C@@H](CCCCNC(=O)[C@@H](Cc1ccccc1)NC(=O)CCCCCNC(=O)CN1CCN(CC(=O)O)CCN(CC(=O)O)CCN(CC(=O)O)CC1)NC(=O)[C@H](Cc1ccc(O)cc1)NC(=O)[C@H](CO)NC(=O)[C@H](Cc1c[nH]c2ccccc12)NC(=O)[C@H](Cc1c[nH]cn1)NC(=O)[C@@H]1CCC(=O)N1)C(=O)N[C@@H](CCCNC(=N)N)C(=O)N1CCC[C@H]1C(=O)NCC(N)=O [indium-111 labelled]  tissue uptake (athymic nude mouse, female, intestines; intravenous, 0.037 MBq, 1 h): 1.56 ± 0.63 %ID
CN1CCC[C@]1(C)/C=C/S(=O)(=O)NC(=O)Nc1c2c(cc3c1CCC3)CC=C2  AUC(0-24) (human, plasma; oral, 50 mg twice daily of parent drug, day 1, metabolite of dosed drug): 324 µg·h/mL
Cc1nc(N)nc2c1C(=O)N[C@@H](c1ccc(F)cc1-c1cccc(O[11CH3])n1)C2  SUV (radioligand, ex vivo biodistribution; healthy mouse, red blood cells; 60 min p.i.): 0.7 ± 0.1
COc1ccc2c(c1)CCn1c[n+]3c(c1-2)-c1ccc(OC)cc1CC3  mean corpuscular haemoglobin (female NSG mice, blood; 6 mg/kg, day 7, 5 days per week): 15.8 ± 0.42 pg
Cc1ncsc1-c1ccc(C(C)NC(=O)C2CC(O)CN2C(=O)C(NC(=O)CCCCCCCCCCN2CCCC(Nc3ncc(Cl)c(Nc4ccccc4S(=O)(=O)C(C)C)n3)C2)C(C)(C)C)cc1 (stereo not shown)  log2 fold change (22Rv1; RNA-seq, measured: ZNF229 mRNA; concentration not given; baseline: DMSO): -1.04
C=CC(=O)Nc1cc(Nc2nccc(-c3cn(C)c4ccccc34)n2)c(OC)cc1N(C)CCNC  recovery (human plasma; 72 h, storage stability, low QC sample): 57%
CCCCN1C(=O)c2cccc3c(NCCCCCCCCN4CCOCC4)ccc(c23)C1=O  fluorescence quantum yield (methanol): 0.75
COC1CN([C@H]2CC[C@H]([C@@]3(C)Oc4c(Cl)cc(C(=O)NCc5c(SC)cc(C)[nH]c5=O)c(C)c4O3)CC2)C1  log2 fold change (RNA-seq, measured: MAP7 mouse homolog; mouse, HT-1376 xenograft, whole blood; dose not given; baseline: vehicle): 0.771
COCC1CN(C2CCN(c3cc(OC)c(Nc4ncc(Br)c(Nc5ccc6c(c5P(C)(C)=O)OCCO6)n4)cc3C)CC2)C1  adverse events (first-in-human trial; human; oral, 10 mg once daily; treatment-related leading to dose suspension): 0%
O=C([O-])CN1CCN(CC(=O)[O-])CCN(C(CO)C(O)CO)CCN(CC(=O)[O-])CC1.[Dy+3] (stereo not shown)  lanthanide concentration (cynomolgus monkey, kidney medulla; dose not given, day 58): 2.1 ± 0.61 nmol/g
O=C(Nc1cnccc1-c1ccc([18F])nc1)c1ccnc(NC(=O)C2CC2)c1  SUV (FVB/NJ mice, both sexes, brain; intravenous, 20 min, median, P-gp inhibitor pretreatment, with: tariquidar 15 mg/kg iv): 0.203
COc1cc(N2CCN(C(=O)C3CCCN3)CC2)ccc1Nc1ncc(Cl)c(Nc2ccccc2P(C)(C)=O)n1 (stereo not shown)  body weight (nude mice, NCI-H3122 xenograft; oral, dose not given, day 3): 22.9 g and 24.7 g and 23.4 g and 23.6 g
CC(C)(O)c1ncc([S@](N)(=O)=NC(=O)Nc2c3c(cc4c2CCC4)CCC3)s1  subjects with TEAEs (measured: skin, subcutaneous tissue disorders; healthy human; oral, dose not given, all active doses pooled): 2%
CC(=O)N([O-])CCCCCNC(=O)CCC(=O)N([O-])CCCCCNC(=O)CCC(=O)N([O-])CCCCCN.[89Zr+4]  intact compound (PBS; 1 days, pH 7, 37 °C): 98 ± 0.6%
CN(CCNCc1ccncc1O)CCNCc1ccncc1O  protonation constant logK3H (potentiometric titration; aqueous KCl solution; 1 mM, 25 °C, 0.1 M KCl): 6.8
Cc1nn(-c2nc3c(F)cc(F)cc3s2)c(O)c1C(c1ccc(C(F)(F)F)cc1)c1c(C)nn(-c2nc3c(F)cc(F)cc3s2)c1O  plasma concentration (ICR mouse; oral, 50 mg/kg, 1.00 h): 70.9 µg/mL and 0.561 µg/mL and 106 µg/mL
C=C(NC(=O)c1csc(-c2nc3c(cc2O)-c2nc(cs2)C(=O)NC(C(C)O)C(=O)NC(=C(C)OC)c2nc(cs2)C(=O)NC2c4nc(cs4)C(=O)NC(COC(=O)c4c5c6c(cccc6n4O)COC(=O)C(OC4CC(C)(O)C(N(C)C)C(C)O4)C2OC5)c2nc-3cs2)n1)C(N)=O (stereo not shown)  MRT(0-t) (ICR mice, Streptococcus pneumoniae ATCC 49169 infected, immunocompromised, blood; intravenous, 32 mg/kg/day three times daily): 8.04 h
CCN(CC)CC#CCNc1ccnc2cc(Cl)ccc12  revertants (Salmonella typhimurium; mini-Ames test; TA1535; 500.0 µg/well, without S9): 1 revertants/well and 5 revertants/well
CC(C)OCCOCc1ccc(OCC(O)CN(N=O)C(C)C)cc1 (stereo not shown)  revertant fold increase (Salmonella typhimurium; Ames test; TA100; 50 µg/plate, without metabolic activation; baseline: solvent control): 0.8 fold
CN(C)C(=O)c1cccc(N2Cc3cnn(Cc4ccc(F)cc4)c3C2)c1  half-life (metabolic stability; human, liver microsomes): 0.45 h
CC(C)C[C@H](NC(=O)[C@@H](CCCCNC(=O)[C@@H](Cc1ccccc1)NC(=O)CCCCCCCNC(=O)CN1CCN(CC(=O)O)CCN(CC(=O)O)CCN(CC(=O)O)CC1)NC(=O)[C@H](Cc1ccc(O)cc1)NC(=O)[C@H](CO)NC(=O)[C@H](Cc1c[nH]c2ccccc12)NC(=O)[C@H](Cc1c[nH]cn1)NC(=O)[C@@H]1CCC(=O)N1)C(=O)N[C@@H](CCCNC(=N)N)C(=O)N1CCC[C@H]1C(=O)NCC(N)=O [indium-111 labelled]  tissue uptake (biodistribution; male athymic nude mice, DU-145 prostate cancer xenograft, bone; intravenous, 0.037 MBq, 4 h post-injection): 0.09 ± 0.03 %ID/g
C=C1CC[C@H](OCCCNC(=O)CCOCCOCCOCCOCCOCCOCCOCCOCCOCCOCCOCCOCCOCCOCCOCCOCCOCCOCCOCCOCCOCCOCCOCCOCCOCCOCCOCCOCCOCCOCCOCCOCCOCCOCCOCCOCCNC(=O)CCN2C(=O)CC(SC[C@H](NC(=O)[C@H](Cc3ccccc3)NC(=O)[C@H](CC(N)=O)NC(=O)[C@H](Cc3c[nH]cn3)NC(=O)[C@@H](NC(=O)[C@H](CC(=O)O)NC(=O)[C@H](CCC(N)=O)NC(=O)[C@H](CC(C)C)NC(=O)[C@H](CCCCN)NC(=O)[C@H](CCCCN)NC(=O)[C@H](CCCNC(=N)N)NC(=O)[C@H](CC(C)C)NC(=O)[C@H](Cc3c[nH]c4ccccc34)NC(=O)[C@H](CCC(=O)O)NC(=O)[C@@H](NC(=O)[C@H](CCCNC(=N)N)NC(=O)[C@H](CCC(=O)O)NC(=O)[C@H](CCSC)NC(=O)[C@H](CO)NC(=O)[C@H](CC(N)=O)NC(=O)[C@H](CC(C)C)NC(=O)[C@H](Cc3c[nH]cn3)NC(=O)[C@H](CCCCN)NC(=O)CNC(=O)[C@H](CC(C)C)NC(=O)[C@H](CC(N)=O)NC(=O)[C@H](Cc3c[nH]cn3)NC(=O)[C@H](CCSC)NC(=O)[C@H](CC(C)C)NC(=O)[C@H](CCC(N)=O)NC(=O)[C@@H](NC(=O)[C@H](CCC(=O)O)NC(=O)[C@H](CO)NC(=O)[C@@H](NC(=O)[C@@H](N)CO)C(C)C)[C@@H](C)CC)C(C)C)C(C)C)C(=O)O)C2=O)C/C1=C/C=C1\CCC[C@]2(C)[C@@H]([C@H](C)CCCC(C)(C)O)CC[C@@H]12 (stereo partly shown)  bioavailability (male cynomolgus monkey, plasma; subcutaneous, 0.02 mg/kg, single dose): 44.8%
CC(C)[C@H](NC(=O)[C@H](Cc1c[nH]c2ccccc12)NC(=O)[C@H](CCCNC(=N)N)NC(=O)[C@H](CCCNC(=N)N)NC(=O)[C@@H](NC(=O)[C@@H](NC(=O)[C@H](CCCNC(=N)N)NC(=O)[C@@H](NC(=O)[C@@H](NC(=O)[C@H](CCCNC(=N)N)NC(=O)[C@H](CCCNC(=N)N)NC(=O)[C@@H](NC(=O)[C@H](Cc1c[nH]c2ccccc12)NC(=O)[C@H](CCCNC(=N)N)NC(=O)[C@H](CCCNC(=N)N)NC(=O)[C@@H](NC(=O)[C@H](CCCNC(=N)N)NC(=O)[C@H](CCCNC(=N)N)NC(=O)[C@@H](NC(=O)[C@H](Cc1c[nH]c2ccccc12)NC(=O)[C@H](CCCNC(=N)N)NC(=O)[C@@H](N)CCCNC(=N)N)C(C)C)C(C)C)C(C)C)C(C)C)C(C)C)C(C)C)C(C)C)C(=O)N[C@@H](CCCNC(=N)N)C(=O)N[C@@H](CCCNC(=N)N)C(=O)O  anion gap (CD1 mouse, plasma; intravenous, 15 mg/kg, 16 h, [14C]-labelled compound): 33.7 mEq/L
C=CC(=O)Nc1cccc(Cn2ncc3cnc(Nc4cnn(CCOC)c4)nc32)c1  percent of control (TBK1 human; binding, KINOMEscan; 100 nM; lower = stronger binding): 27%
CN1CCC[C@]1(C)/C=C/S(=O)(=O)NC(=O)Nc1c2c(cc3c1CCC3O)CCC2 (stereo partly shown)  AUC(0-24) (human, plasma; oral, 50 mg twice daily of parent drug, day 1, metabolite of dosed drug): 488 µg·h/mL
CNC(=O)C1CCCN(C(=O)C2CC3CCC2N3C(=O)[C@@H]2C[C@@H](O)CN2C(=O)NCc2cccc(Cl)c2F)C1 (mixture of isomers)  remaining activity (CYP3A4 (human); inhibitor, time-dependent inhibition; 0.617 µM, preincubated without NADPH, with: testosterone substrate; baseline: negative control): 102%
N#C[C@@H]1CC(F)(F)CN1C(=O)CNC(=O)c1ccnc2c(NC(=O)[C@@H](N)CCCCNC(=O)CCOCCOCCOCCOCCOCCOCCNC(=O)CN3CCN(CC(=O)[O-])CCN(CC(=O)[O-])CCN(CC(=O)[O-])CC3)cccc12.[177Lu+3]  tracer uptake (U-87 MG tumour model; host not given, heart; 4 h, tumour-bearing): 0.06 %ID/g
Nc1ncc(-c2cc(-c3cnn(CC(F)(F)F)c3)ncc2F)nc1C(=O)NC1CNCC(F)C1 (stereo not shown)  remaining binding (PIP5K2B; KINOMEscan; 1 µM; baseline: DMSO control): 100%
Cc1cc(-c2ccc(C(=O)[C@@H]3CCCC[C@H]3C(=O)Nc3cnn4c3C(=O)NCC4)cc2)[nH]n1  recovery of radioactivity per interval (human, urine; oral, 200 mg, 24-48 h; baseline: dose): 0.34%
O=C(Nc1cnccc1-c1ccc([18F])cc1)c1ccnc(NC(=O)C2CC2)c1  SUV (mice, transgenic, GSK-3β, early-stage, bone; intravenous, dose not given, 120 min): 1.5
[123I]c1ccc2nc(-c3ccc(-n4ccnn4)nc3)cn2c1  tracer uptake (male Wistar rat, kidney; intravenous, 4 MBq, 3 h): 0.105 %ID/g

A few entries again:
O=C([O-])CN1CCN(CC(=O)[O-])CCN(CC(CCCc2ccccc2[N+](=O)[O-])N(CC(=O)[O-])CC(=O)[O-])CC1.[177Lu+3] (stereo not shown)  intact radiolabelled complex (HPLC; human serum; 134 h, pH 7, 37 °C): 100%
O=C1C2CC3CC1CC(C(=O)N1CCN(c4ccc([N+](=O)[O-])c5ncccc45)CC1)(C3)C2  revertant fold increase (Escherichia coli; Ames test; WP2 uvrA pKM101; 0.13 µg/well, without S9; baseline: vehicle): 0.7
CC[C@H](C)[C@H](NC(=O)C[C@H](NC(=O)CN1CCN2CCN(CC1)CC(=O)[O][Al]([18F])[O]C(=O)C2)C(=O)O)C(=O)N[C@H]1CCc2cccc3c2N(C1=O)[C@H](C(=O)NCc1cn[nH]n1)C3  maximum tumour uptake (PET; C57BL/6J mice with MC-38 tumour, anti-PD-1 treated; 30 min): 2.21 ± 0.7 %ID/g
N#Cc1cc(NC(=O)C2c3ccccc3C(=O)N(CC(F)(F)F)C2c2ccc[n+]([O-])c2)ccc1F (stereo not shown)  maximum AUC (human, plasma; concentration not given, single-dose cohorts, interim): 51.5 µg·h/mL
